Measured values collected from several papers.
Lines come from different studies, so protocols differ. ± gives the spread as reported. Converted amounts (≈) assume the structure as drawn.
TDP1: Tyrosyl-DNA phosphodiesterase 1 (TDP1, Homo sapiens, UniProt Q9NUW8)
Sequence of UniProt Q9NUW8 (whole entry, looked up): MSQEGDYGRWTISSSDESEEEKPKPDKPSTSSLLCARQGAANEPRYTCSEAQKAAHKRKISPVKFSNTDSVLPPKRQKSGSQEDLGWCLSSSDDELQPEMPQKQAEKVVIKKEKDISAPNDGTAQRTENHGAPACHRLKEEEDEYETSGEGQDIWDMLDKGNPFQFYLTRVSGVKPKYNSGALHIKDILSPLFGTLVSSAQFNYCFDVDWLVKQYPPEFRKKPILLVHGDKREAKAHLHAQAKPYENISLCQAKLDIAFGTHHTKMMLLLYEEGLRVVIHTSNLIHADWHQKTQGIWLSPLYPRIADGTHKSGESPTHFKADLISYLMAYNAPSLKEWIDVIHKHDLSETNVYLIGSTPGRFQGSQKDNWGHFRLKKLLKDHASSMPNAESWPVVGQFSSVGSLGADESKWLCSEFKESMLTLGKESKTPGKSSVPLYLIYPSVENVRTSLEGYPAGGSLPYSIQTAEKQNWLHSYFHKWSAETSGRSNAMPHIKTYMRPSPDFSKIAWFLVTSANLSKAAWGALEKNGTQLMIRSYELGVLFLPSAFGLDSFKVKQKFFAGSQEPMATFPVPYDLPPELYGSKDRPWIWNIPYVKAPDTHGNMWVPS

CN1CCCNC(=O)c2cccc(c2)C(=O)NCCCN(C)CCCNc2cccc3c2C(=O)c2cccc(c2C3=O)NCCC1 — log2 fold change (SAS; RNA-Seq, refers to: EPHB2 mRNA; 1 µM, 6 h; baseline: untreated cells): -0.702
C=CC(=O)Nc1cccc(Cn2ncc3cnc(Nc4cnn(CCOC)c4)nc32)c1 — percent of control (ZAP70 human; binding, KINOMEscan; 100 nM; lower = stronger binding): 54%
C=C(NC(=O)c1csc(-c2nc3c(cc2O)-c2nc(cs2)C(=O)NC(C(C)O)C(=O)NC(=C(C)OC)c2nc(cs2)C(=O)NC2c4nc(cs4)C(=O)NC(COC(=O)c4c5c6c(cccc6n4O)COC(=O)C(OC4CC(C)(O)C(N(C)C)C(C)O4)C2OC5)c2nc-3cs2)n1)C(N)=O (stereo not shown) — MIC90 (Streptococcus viridans; microbial growth; clinical isolate): 7.8 ng/mL (≈ 5.43 nM)
Cn1ncc2cc(-c3cncc(Cl)c3N3CCC4(CCNC4=O)CC3)ccc21 — log2 fold change (LS174T; gene expression, microarray, refers to: ZFP14 mRNA; concentration not given, 24 h; baseline: untreated cells): 3.21
Nc1ncc(-c2cc(-c3cnn(CC(F)(F)F)c3)ncc2F)nc1C(=O)NC1CNCC(F)C1 (stereo not shown) — remaining binding (PHKG1; KINOMEscan; 1 µM; baseline: DMSO control): 82%
Cc1ncsc1-c1ccc(C(C)NC(=O)C2CC(O)CN2C(=O)C(NC(=O)CCCCCCCCCCN2CCCC(Nc3ncc(Cl)c(Nc4ccccc4S(=O)(=O)C(C)C)n3)C2)C(C)(C)C)cc1 (stereo not shown) — log2 fold change (22Rv1; RNA-seq, refers to: MFAP3L mRNA; concentration not given; baseline: DMSO): -1.67
CO[C@@H]1OC[C@@H](O)[C@H](O)[C@H]1O — inhibition (Helicobacter pylori; microbial growth, broth dilution; 62.5 µg/mL): 11.7%
COC1CN([C@H]2CC[C@H]([C@@]3(C)Oc4c(Cl)cc(C(=O)NCc5c(SC)cc(C)[nH]c5=O)c(C)c4O3)CC2)C1 — log2 fold change (RNA-seq, refers to: HIC1 mouse homolog; mouse, HT-1376 xenograft, whole blood; dose not given; baseline: vehicle): 1.38
CC=C(C)C(=O)OC1CC2C(C=C(C)C3C(OC(C)=O)CC(=O)C13C)OC(=O)C2C (stereo not shown) — inhibition (Helicobacter pylori; microbial growth, broth dilution; 0.48 µg/mL): 0%
O=C(O)c1ccc(Nc2c(-c3ccc(CON=Cc4c(C=Cc5ccoc5)oc5ccc(O)cc45)cc3)nc3cc(-c4ccccc4)ccn23)cc1 — inhibition (TDP1; enzyme activity, inhibitor; 100 µM, unpurified compound): 51.1%
COc1cc(O)ccc1CCC(c1ccc(O)cc1)c1cc2c(c(C)c1O)OC(c1ccc(O)cc1)CC2 (mixture of isomers) — 12-HETE level (human blood; 0.3 µM, with: A23187): 6510 ± 2500 pg/mL
CNS(=O)(=O)Nc1nccc(Cc2c(C)c3ccc(Oc4ncccc4F)cc3oc2=O)c1F — IC50 (CAL-62; cell viability; 7 days): 142 nM
CCN(CC)CC(=O)Nc1cccc(-n2cc(-c3ccc4ccc(-c5cn(-c6cccc(NC(=O)CN(CC)CC)c6)nn5)cc4c3)nn2)c1 — fold regulation (RCC4; PCR array, refers to: ENG; 5 x IC50, 6 h, normoxia; baseline: untreated): -1.01
C=CC(=O)N1[C@@H](c2ccc3c(c2)OCO3)c2[nH]c3ccccc3c2C[C@H]1C(=O)N1CCN(C)CC1 — log2 fold change (CCNE1 WT-3xFLAG:CDK2 complex; co-IP TMT proteomics, refers to: ZCCHC6; HEK-293T; 20 µM, 6 h; baseline: DMSO): -0.0145
c1ccc(-c2n[nH]cc2-c2ccnc3ccccc23)nc1 — log2 fold change (PBS2 (Candida albicans); kinase binding, MIB/MS competition; Candida albicans lysate; 1 µM; baseline: DMSO): -0.03
C=CCn1c(C)c(C=NOCc2ccc3nc(-c4ccccc4)c(Nc4ccc(C(=O)O)cc4)n3c2)c2ccccc21 — inhibition (TDP1; enzyme activity, inhibitor; 100 µM, unpurified compound): 36.9%

Some of these lines once more:
C=C(NC(=O)c1csc(-c2nc3c(cc2O)-c2nc(cs2)C(=O)NC(C(C)O)C(=O)NC(=C(C)OC)c2nc(cs2)C(=O)NC2c4nc(cs4)C(=O)NC(COC(=O)c4c5c6c(cccc6n4O)COC(=O)C(OC4CC(C)(O)C(N(C)C)C(C)O4)C2OC5)c2nc-3cs2)n1)C(N)=O (stereo not shown) — MIC90 (Streptococcus viridans; microbial growth; clinical isolate): 7.8 ng/mL (≈ 5.43 nM)
Cn1ncc2cc(-c3cncc(Cl)c3N3CCC4(CCNC4=O)CC3)ccc21 — log2 fold change (LS174T; gene expression, microarray, refers to: ZFP14 mRNA; concentration not given, 24 h; baseline: untreated cells): 3.21
